# Results gathered from unrelated publications.
# Lines come from different studies, so protocols differ. “And” joins repeats or separate records; there may be more than shown. ± marks the error that the study gave.
Structure (SMILES),assay,system,conditions,how to read,quantity,value
CSCC[C@H](NC(=O)CNC(=O)[C@H](CCCCN)NC(=O)[C@H](CC(C)C)NC(=O)[C@@H]1CCCN1C(=O)[C@H](CO)NC(=O)[C@H](Cc1c[nH]cn1)NC(=O)[C@H](Cc1c[nH]c2ccccc12)NC(=O)[C@H](CCCNC(=N)N)NC(=O)[C@H](CC(C)C)NC(=O)[C@H](CCCNC(=N)N)NC(=O)[C@H](Cc1c[nH]c2ccccc12)NC(=O)[C@H](CS)NC(=O)CCCCCNC(=O)CN1CCN(CC(=O)O)CCN(CC(=O)O)CCN(CC(=O)O)CC1)C(=O)O [copper-64 labelled],,"BALB/c nude mouse, Huh-7 tumour, lymph node","intravenous, 6 h, ex vivo biodistribution",,tissue uptake,2.43 %ID/g
CC[C@H](C)[C@H](NC(=O)[C@H](CCCNC(=N)N)NC(=O)[C@H](CCCCN)NC(=O)[C@H](Cc1ccc(O)cc1)NC(=O)[C@H](CC(=O)O)NC(=O)[C@H](C)NC(=O)CNC(=O)CCOCCOCCOCCNC(=O)CN1CCN(CC(=O)O)CCN(CC(=O)O)CCN(CC(=O)O)CC1)C(=O)N[C@H](C(=O)N[C@H](C(=O)N[C@@H](CCCCN)C(=O)N[C@H](C(=O)N[C@@H](CC(N)=O)C(N)=O)C(C)C)C(C)C)[C@@H](C)O [copper-64 labelled],,"C57BL/6J mouse male, B16-F10 tumour, small intestine","intravenous, 1.85 MBq, 100 min, 67Ga complex",,tissue uptake,2.7 ± 0.049 %ID/g
CSCC[C@H](N)C(=O)N[C@@H](C)C(=O)N[C@@H](CCCNC(=N)N)C(=O)N[C@@H](CCCNC(=N)N)C(=O)N[C@@H](CC(=O)O)C(=O)N[C@@H](CCCCN)C(=O)N[C@H](C(=O)N[C@@H](CC(=O)O)C(=O)N[C@@H](Cc1ccccc1)C(=O)N[C@@H](C)C(=O)N[C@@H](CCCNC(=N)N)C(=O)N[C@@H](CCCNC(=N)N)C(=O)N[C@@H](CCCNC(=N)N)C(=O)N[C@@H](CCCNC(=N)N)C(=O)NCCCCCC(=O)NCCCCC(NC(=O)CCCCCNC(=O)[C@H](CCCNC(=N)N)NC(=O)[C@H](CCCNC(=N)N)NC(=O)[C@H](CCCNC(=N)N)NC(=O)[C@H](CCCNC(=N)N)NC(=O)[C@H](C)NC(=O)[C@H](Cc1ccccc1)NC(=O)[C@H](CC(=O)O)NC(=O)[C@@H](NC(=O)[C@H](CCCCN)NC(=O)[C@H](CC(=O)O)NC(=O)[C@H](CCCNC(=N)N)NC(=O)[C@H](CCCNC(=N)N)NC(=O)[C@H](C)NC(=O)[C@@H](N)CCSC)[C@@H](C)O)C(=O)NCCCCC(NC(=O)C(CCCCNC(=O)CCCCCNC(=O)[C@H](CCCNC(=N)N)NC(=O)[C@H](CCCNC(=N)N)NC(=O)[C@H](CCCNC(=N)N)NC(=O)[C@H](CCCNC(=N)N)NC(=O)[C@H](C)NC(=O)[C@H](Cc1ccccc1)NC(=O)[C@H](CC(=O)O)NC(=O)[C@@H](NC(=O)[C@H](CCCCN)NC(=O)[C@H](CC(=O)O)NC(=O)[C@H](CCCNC(=N)N)NC(=O)[C@H](CCCNC(=N)N)NC(=O)[C@H](C)NC(=O)[C@@H](N)CCSC)[C@@H](C)O)NC(=O)CCCCCNC(=O)[C@H](CCCNC(=N)N)NC(=O)[C@H](CCCNC(=N)N)NC(=O)[C@H](CCCNC(=N)N)NC(=O)[C@H](CCCNC(=N)N)NC(=O)[C@H](C)NC(=O)[C@H](Cc1ccccc1)NC(=O)[C@H](CC(=O)O)NC(=O)[C@@H](NC(=O)[C@H](CCCCN)NC(=O)[C@H](CC(=O)O)NC(=O)[C@H](CCCNC(=N)N)NC(=O)[C@H](CCCNC(=N)N)NC(=O)[C@H](C)NC(=O)[C@@H](N)CCSC)[C@@H](C)O)C(N)=O)[C@@H](C)O (stereo partly drawn),,"C57BL/6 mouse female, skull","dose not given, 3 h",reference: total,tissue distribution,19.8% and 12.5% and 13.3%
CC(=O)N[C@H](C(=O)N[C@@H](CCCC(=O)OC(C)(C)C)C(=O)N[C@@H](CCC1CCCCC1)C(=O)N[C@@H](CC(=O)O)C(=O)COC(=O)c1c(C)cccc1C)C(C)(C)C,,"C57BL/6N mouse female, lung","intraperitoneal, dose not given, 24 h",,tissue concentration,29.4 µM and 122 µM and 73.4 µM
CC(C)C[C@@H](NC(=O)[C@@H](CCCCN)NC(=O)CNC(=O)CNC(=O)[C@@H]1CSSC[C@H](N)C(=O)NCC(=O)N[C@@H](CCCNC(=N)N)C(=O)N[C@@H](CCCNC(=N)N)C(=O)N[C@@H](C)C(=O)NCC(=O)NCC(=O)N[C@@H](CO)C(=O)N1)C(=O)N[C@H](C)C(=O)N[C@H](CCCCN)C(=O)N[C@H](CC(C)C)C(=O)N[C@H](C)C(=O)N[C@H](CCCCN)C(=O)N[C@H](CCCCN)C(=O)N[C@H](CC(C)C)C(=O)N[C@H](C)C(=O)N[C@H](CCCCN)C(=O)N[C@H](CC(C)C)C(=O)N[C@H](C)C(=O)N[C@H](CCCCN)C(=O)O,immunohistochemistry,"mouse, brain and liver","10 mg/kg, 20 min",,tissue detection,not detected
CSCC[C@H](N)C(=O)N[C@@H](C)C(=O)N[C@@H](Cc1c[nH]c2ccccc12)C(=O)N[C@@H](Cc1c[nH]cn1)C(=O)N[C@@H](CC(=O)O)C(=O)N[C@@H](CC(=O)O)C(=O)N[C@@H](CCC(=O)O)C(=O)N[C@@H](CCC(=O)O)C(=O)N[C@@H](Cc1ccccc1)C(=O)N[C@@H](C)C(=O)N[C@@H](CCCNC(=N)N)C(=O)N[C@@H](CCCNC(=N)N)C(=O)N[C@@H](CCCNC(=N)N)C(=O)N[C@@H](CCCNC(=N)N)C(=O)NCCCCCC(=O)NCCCCC(NC(=O)CCCCCNC(=O)[C@H](CCCNC(=N)N)NC(=O)[C@H](CCCNC(=N)N)NC(=O)[C@H](CCCNC(=N)N)NC(=O)[C@H](CCCNC(=N)N)NC(=O)[C@H](C)NC(=O)[C@H](Cc1ccccc1)NC(=O)[C@H](CCC(=O)O)NC(=O)[C@H](CCC(=O)O)NC(=O)[C@H](CC(=O)O)NC(=O)[C@H](CC(=O)O)NC(=O)[C@H](Cc1c[nH]cn1)NC(=O)[C@H](Cc1c[nH]c2ccccc12)NC(=O)[C@H](C)NC(=O)[C@@H](N)CCSC)C(=O)NCCCCC(NC(=O)C(CCCCNC(=O)CCCCCNC(=O)[C@H](CCCNC(=N)N)NC(=O)[C@H](CCCNC(=N)N)NC(=O)[C@H](CCCNC(=N)N)NC(=O)[C@H](CCCNC(=N)N)NC(=O)[C@H](C)NC(=O)[C@H](Cc1ccccc1)NC(=O)[C@H](CCC(=O)O)NC(=O)[C@H](CCC(=O)O)NC(=O)[C@H](CC(=O)O)NC(=O)[C@H](CC(=O)O)NC(=O)[C@H](Cc1c[nH]cn1)NC(=O)[C@H](Cc1c[nH]c2ccccc12)NC(=O)[C@H](C)NC(=O)[C@@H](N)CCSC)NC(=O)CCCCCNC(=O)[C@H](CCCNC(=N)N)NC(=O)[C@H](CCCNC(=N)N)NC(=O)[C@H](CCCNC(=N)N)NC(=O)[C@H](CCCNC(=N)N)NC(=O)[C@H](C)NC(=O)[C@H](Cc1ccccc1)NC(=O)[C@H](CCC(=O)O)NC(=O)[C@H](CCC(=O)O)NC(=O)[C@H](CC(=O)O)NC(=O)[C@H](CC(=O)O)NC(=O)[C@H](Cc1c[nH]cn1)NC(=O)[C@H](Cc1c[nH]c2ccccc12)NC(=O)[C@H](C)NC(=O)[C@@H](N)CCSC)C(N)=O (stereo partly drawn),,"C57BL/6 mouse female, skull","dose not given, 6 h",reference: total,tissue distribution,11.9% and 41.1% and 25.8%
CC[C@H](C)[C@H](NC(=O)[C@H](CCCCN)NC(=O)CNC(=O)[C@H](CC(C)C)NC(=O)[C@H](Cc1ccccc1)NC(=O)[C@H](CCCCN)NC(=O)[C@H](CO)NC(=O)[C@H](Cc1ccccc1)NC(=O)[C@H](Cc1c[nH]c2ccccc12)NC(=O)[C@H](CCC(N)=O)NC(=O)[C@@H](NC(=O)[C@H](Cc1ccccc1)NC(=O)CCCCCNC(=O)CN1CCN(CC(=O)O)CCN(CC(=O)O)CCN(CC(=O)O)CC1)C(C)C)C(=O)N[C@@H](CCC(=O)O)C(=O)N1CCC[C@H]1C(=O)N[C@@H](CC(=O)O)C(=O)N[C@H](C(=O)N[C@@H](CO)C(=O)N[C@@H](CCC(N)=O)C(=O)N[C@H](C(=O)N[C@@H](CCC(N)=O)C(=O)N[C@@H](CC(=O)O)C(=O)N1CCC[C@H]1C(=O)N[C@@H](CC(N)=O)C(=O)N[C@@H](CC(=O)O)C(=O)N[C@@H](CCC(N)=O)C(=O)N[C@@H](Cc1ccc(O)cc1)C(=O)N[C@@H](CCC(=O)O)C(=O)N1CCC[C@H]1C(=O)N[C@@H](Cc1ccccc1)C(=O)O)C(C)C)C(C)C [copper-64 labelled],,"C57BL/6 male mouse, tumour-naive, lung",0.5 h,,tissue uptake,5.81 ± 0.8 %ID/g
CC[C@H](C)[C@H](NC(=O)[C@H](CCCNC(=N)N)NC(=O)[C@H](CCCCN)NC(=O)[C@H](Cc1ccc(O)cc1)NC(=O)[C@H](CC(=O)O)NC(=O)[C@H](C)NC(=O)CNC(=O)CCOCCOCCOCCNC(=O)CN1CCN(CC(=O)O)CCN(CC(=O)O)CCN(CC(=O)O)CC1)C(=O)N[C@H](C(=O)N[C@@H](CC(C)C)C(=O)N[C@@H](CCCCN)C(=O)N[C@H](C(=O)N[C@@H](CC(N)=O)C(N)=O)C(C)C)[C@@H](C)O [copper-64 labelled],,"C57BL/6J mouse male, B16-F10 tumour, small intestine","intravenous, 1.85 MBq, 20 min, 67Ga complex",,tissue uptake,1.55 ± 0.683 %ID/g
CN1Cc2cc(Cl)ccc2-n2c(nnc2C2CCN(c3cccc([18F])n3)CC2)C1,,"C57BL/6 mouse male, lung","intravenous, 3.7 MBq, 1 min",,tissue uptake,11.8 ± 4.88 %ID/g
